Published values gathered from unrelated publications.
Each line is one published result; not all experiments were run side by side. ± marks the error that the study gave.

O=C(c1ccc2ncc(-c3ccc4c(=O)[nH]ccc4c3)nc2c1)N1CCCCC1
half-life (ICR/CD-1 mouse, female, mouse liver S9 fraction; 2 µM, pH 7.5): > 4 h

CC(C)NC(=O)COc1cccc(-c2nc(Nc3ccc4[nH]ncc4c3)c3ccccc3n2)c1
half-life (male C57BL/6 mouse, plasma; oral, 100 mg/kg, one-compartment model): 3.69 h

CNC(=O)c1cc(Oc2ccc(NC(=O)Nc3ccc(Cl)c(C(F)(F)F)c3)cc2)ccn1
half-life (nude mouse, LM3 tumour xenograft, subcutaneous tumour; intratumoral, PXR siRNA): 50.3 ± 3.57 h

Cl.Nc1ncc(-c2cnc3ccc(C(=O)N4CCCCC4)cc3n2)cc1Cl
half-life (ICR/CD-1 mouse, female, liver S9; 2 µM, pH 7.5): 3.3 h

Cc1c2oc3c(C)ccc(C(=O)N[C@@H]4C(=O)N[C@H](C(C)C)C(=O)N5CCC[C@H]5C(=O)N(C)CC(=O)N(C)[C@@H](C(C)C)C(=O)O[C@@H]4C)c3nc-2c(C(=O)N[C@@H]2C(=O)N[C@H](C(C)C)C(=O)N3CCC[C@H]3C(=O)N(C)CC(=O)N(C)[C@@H](C(C)C)C(=O)O[C@@H]2C)c(N)c1=O
half-life (mouse, FVB wild-type, kidney; intravenous, 0.5 mg/kg): 2.18 h

Nc1ccn([C@@H]2O[C@H](CO)[C@@H](O)C2(F)F)c(=O)n1
half-life (BALB/c mouse, male, plasma; intravenous, 38 µmol/kg): 1.46 ± 0.53 h

CCOc1ccc(NC(=S)N(CCO)Cc2cc3cc(C)cc(C)c3[nH]c2=O)cc1
half-life (C57BL/6J mouse, plasma; 3 mg/kg): < 1 h

CSc1cc(C)nc(SC)c1NC(=O)CN1CCN(CCSc2nc3ccccc3[nH]2)CC1.Cl
half-life (CD-1 mouse, female, plasma; intranasal, 32.4 µg/10 µL, 7 days repeated): 0.245 ± 0.0183 h

Cc1cc(N(CCO)CCO)ccc1C(=O)O
half-life (mouse CD2F1, plasma; intravenous, 20 mg/kg): 0.567 h

A few entries again:
CSc1cc(C)nc(SC)c1NC(=O)CN1CCN(CCSc2nc3ccccc3[nH]2)CC1.Cl
half-life (CD-1 mouse, female, plasma; intranasal, 32.4 µg/10 µL, 7 days repeated): 0.245 ± 0.0183 h
